Assay results collected from several papers.
Numbered parts are unrelated; each lists some results of a single study. Positions count from the first letter of the parent shown.

Study 1
Target: RNA binding protein fox-1 homolog 2, RRM domain, GST-SBP tag (RBFOX2, Homo sapiens, UniProt O43251-10, residues 100-194)
Technique: RNA Bind-n-Seq
Molecule type: RNA
Matrix: in vitro
Tested at: 365 nM
Setting: natural RNA segment, single round, ends assumed
Baseline: no-protein control
Direction: higher = stronger binding
All sequences stand within: GGGAGUUCUACAGUCCGACGAUC … UGGAAUUCUCGGGUGCCAA
Residues (chain): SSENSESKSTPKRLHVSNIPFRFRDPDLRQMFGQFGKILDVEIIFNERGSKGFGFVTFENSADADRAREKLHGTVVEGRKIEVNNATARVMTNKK
Oligonucleotide	RBNS enrichment (R)
GAGGUGUGGAGCCGAGGCCUACCCCGCAGACACCUUGGACAUCCUCCUCCCACCCGGCUGCAGAGGCCAGAGGCCCCCAGCCCAGGGCUCCUGCACUUACUUGCUUAUUU	0.308
CUUGGACGUGUCCCCUUUAUUUCAUGAGCCUUUCCCCGUUUGGGUUAAGAAGCUGUUAUGCUGUGGGAGCCAGGAGCCGUGUGUUCCUGCCAUCAGCUUUUCUCUGGUGA	0.316
CACCCAGAGGUGGCCCUCCCAGGCUGGUAUUUAUCUGCAAGGUUGUAGUCAAGAGGUUUUUCUCCCCGCUUUUUGUUUUUAAGCUUCUAGACACUCCUUGAAAUGUGUGU	1.42
CAAGCCCCUUGAAGGUUUGGAUGGGAUGAGAUGGACAGUUACUGUAAUGAAGGACAAAGGGAACCAGGGACGGGGAGGAGGCAUAGUCUGUGGUGACAGACAAUGCUAAG	0.767
GUAGAGGGAGAGCCAUGUACUUGGGAGUAGGCUGAAGUACCUAACAGUGUAGGGUAAAGAACAGAAUUGGAACAGAACUAAGGCUGUUGCUUUCAUAGCAUCUCAGACUA	0.514
CAGAUCUUCAGUCAUUGGGAAGAUGGAGAUACCACUGUAGGGGUGACACCGGGAGACCUAGGAGAUCCCUUCCUGCCCUCUUUCUCUUGGCCUCCGAUUCACUCCUGUCC	0.431
GAAGACUUGAUUGAUAGCAUGGUUUCAAGAGAGAAGUGGGGCCACACACAAAAUCACCAAUGAUUCCGUUACCUUCUGGAGUAAGGACCCCACCCUCUCUGCAGCAAGGG	4.67
GGAGCUUGUCUCUUCCAUAGACCUCCAAAGCUUCAGGGAAGGGAAAACCCAGGGUAUCUUCCCUCAGCAGCCUUCCAGCCGAGGACCAGAAAAGCUAUGAUUCCAUUAGA	0.48
GAAUGUUGGUUCCUUGUUCCAGGAAUUCAACAUUAAUUUCCAAAAGUAUCAUGGGACUUGUGACAAUACAAGACAUGAAUCUAUGUAUAAAAUUUAUCGGCCUUUCUCAU	0.26
GCGUCUUCUGUGACCCUCACUACCUGCACUGCUUGCAUCCCUGCUUUAUGCCUGGUGGCACAUUAUUCACCCGGUAACCUCCAGCUGCUUUGAUCCUGUUUCAGUCAAAG	2.91
UACUGUCCCCAUAGGUAUCAGACUACAAAUUAGGACAUAUGCGACGGGUGGAGGACCUCUAGGUGCGUAUGUAUUUCCCUUGGAAGGAACAGGAAGUUUGCUCUAAGAUG	0.538
GAAGAGUUUUGAUUCUGUCCUUUUUUACUUGACAGUUUUACUAUGACACUAGACUCAGUAGAUUUUUAGGGAAAAAUAUGAUUAAUAGUAUCAUGGUGAACCAUUUAUUU	0.581

Study 2
Target: Ras GTPase-activating protein-binding protein 1, C-terminal RGG region (G3BP1, Homo sapiens, UniProt Q13283)
Chain of UniProt Q13283 (whole entry, looked up): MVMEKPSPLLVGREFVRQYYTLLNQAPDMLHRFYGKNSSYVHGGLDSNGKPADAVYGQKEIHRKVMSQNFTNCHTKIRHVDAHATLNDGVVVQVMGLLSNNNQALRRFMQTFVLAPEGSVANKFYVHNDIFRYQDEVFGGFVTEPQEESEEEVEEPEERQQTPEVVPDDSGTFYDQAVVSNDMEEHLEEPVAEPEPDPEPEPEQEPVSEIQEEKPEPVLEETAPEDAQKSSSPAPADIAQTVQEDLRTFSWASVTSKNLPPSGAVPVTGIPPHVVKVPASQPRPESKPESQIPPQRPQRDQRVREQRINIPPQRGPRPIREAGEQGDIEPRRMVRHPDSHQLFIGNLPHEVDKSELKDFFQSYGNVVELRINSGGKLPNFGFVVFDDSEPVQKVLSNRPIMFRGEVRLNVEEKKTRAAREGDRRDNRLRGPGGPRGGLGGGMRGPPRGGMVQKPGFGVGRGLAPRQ
Technique: RNA Bind-n-Seq
Molecule type: RNA
Matrix: in vitro
Tested at: 1 µM
Setting: whole 134-nt RNA, ends assumed
Added: 150 mM KCl
Baseline: input library
Direction: higher = stronger binding
All sequences stand within: GGGAGUUCUACAGUCCGACGAUC … UGGAAUUCUCGGGUGUCAAGG
Oligonucleotide	log2 enrichment
UGGGAGGUGGAUUUUGUUUAUUUUAUUAGCUCAUUUCCAGGGGUGGGAAUUUUUUUUUAAUAUGUGUCAUGAAUAAAGUUGUUUUUGAAA	3.39
CUCAAGUCCUGUGCUACACAUCGUAUGUACCGAAUCGGGGUUGGGGUUGGUUGGAAAGUAUUAUGUUACGCCGUUCGGAUCUGCACUUCC	0.00189
CCUGUGCUACACAUCGUAUGUACCGAAUCGGGGUUUUUUUGGGGUUUGGGGUUUUUGGGGAAAGUAUUAUGUUACGCCGUUCGGAUCUGC	0.938
AGUCCUGUGCUACACAUCGUAUGUACCGAAUCGGUUUUUGGGUUUUUGGGUUUUUGGAAAGUAUUAUGUUACGCCGUUCGGAUCUGCACU	-1.24
CUGUGCUACACAUCGUAUGUACCGAAUCGGGGAAAAAAAGGAAAAAAAGGGGAAAAAAAGGGAAAGUAUUAUGUUACGCCGUUCGGAUCU	-1.22
AAGUCCUGUGCUACACAUCGUAUGUACCGAAUCGGGUUUGGGAGGGAAAAAAAGGGAAAGUAUUAUGUUACGCCGUUCGGAUCUGCACUU	0.0415
UCCUCAAGUCCUGUGCUACACAUCGUAUGUACCGAAUCGGGAGGGAGGAGGAAAGUAUUAUGUUACGCCGUUCGGAUCUGCACUUCCAGC	-1.14
AGUCCUGUGCUACACAUCGUAUGUACCGAAUCAAAUUUUUAAAUUUUUAAACCCAAAAAAGUAUUAUGUUACGCCGUUCGGAUCUGCACU	-1.04
UUCCGCCUCUUUCCGGAGUACAAGAACAACAAACUUUUCCUGACCGGGGAGAGCUAUGCUGGCAUCUACAUCCCCACCCUGGCCGUGCUG	0.0901
UAACUUUAGAGGAGGAUCUGAUGGAUAUGGCAGUGGACGUGGAUUUGGGGAUGGCUAUAAUGGGUAUGGAGGAGGACCUAGAGGUGGCAA	-1.26

Study 3
Target: UBE2J1 UBC core domain (UniProt Q9Y385)
Chain of UniProt Q9Y385 (whole entry, looked up): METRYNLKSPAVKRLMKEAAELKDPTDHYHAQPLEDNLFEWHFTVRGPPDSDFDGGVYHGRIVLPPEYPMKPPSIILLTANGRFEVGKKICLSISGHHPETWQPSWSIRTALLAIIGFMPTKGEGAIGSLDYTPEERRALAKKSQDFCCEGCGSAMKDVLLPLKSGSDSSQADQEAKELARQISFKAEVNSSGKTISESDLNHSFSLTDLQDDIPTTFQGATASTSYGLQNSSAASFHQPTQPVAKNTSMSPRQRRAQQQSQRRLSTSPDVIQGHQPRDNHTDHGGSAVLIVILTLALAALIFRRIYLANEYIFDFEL
Technique: yeast two-hybrid
Matrix: yeast
Setting: mostly zero background
Baseline: not given
Direction: higher = stronger interaction
B1: MYCBP2 RING domain (UniProt O75592); chain TSLKQDADDMCMICFTEALSAAPAIQLDCSHIFHLQCCRRVLENRWLGPRITFGFISCPICKNKINHIVLKD
B2: DEF8 RING domain (UniProt Q6ZN54); chain AGRLGCSLTEIHTLFAKHIKLDCERCQAKGFVCELCREGDVLFPFDSHTSVCADCSAVFHRDCYYDNSTTCPKCARLSLRK
B3: RNF187 RING domain (UniProt Q5TA31); chain ALPAGPAEAACALCQRAPREPVRADCGHRFCRACVVRFWAEEDGPFPCPECADDCWQRAVEP
B4: TRIM37 RING domain (UniProt O94972); chain SVESIAEVFRCFICMEKLRDARLCPHCSKLCCFSCIRRWLTEQRAQCPHCRAPLQLRELVN
B5: RNF166 RING domain (UniProt Q96A37); chain GDSGLEAQYTCPICLEVYHRPVAIGSCGHTFCGECLQPCLQVPSPLCPLCRLPFDPKKVDK
B6: RNF152 RING domain (UniProt Q8N8N0); chain ETLSQDSLLECQICFNYYSPRRRPKLLDCKHTCCSVCLQQMRTSQKDVRCPWCRGVTKLPPGFS
B7: MEX3B RING domain (UniProt Q6ZN04); chain SGLRRKGSRDCSVCFESEVIAALVPCGHNLFCMECANRICEKSEPECPVCHTAVTQAIRIF
B8: TRIM22 RING domain (UniProt Q8IYM9); chain VKVDIEKEVTCPICLELLTEPLSLDCGHSFCQACITAKIKESVIISRGESSCPVCQTRFQPGNLRP
B9: TRIM54 RING domain (UniProt Q9BYV2); chain SMDNLEKQLICPICLEMFSKPVVILPCQHNLCRKCANDVFQASNPLWQSRGSTTVSSGGRFRCPSCRHEVVLDRHGV
B10: RNF122 RING domain (UniProt Q9H9V4); chain AKKLQLYGQTCAVCLEDFKGKDELGVLPCQHAFHRKCLVKWLEVRCVCPMCNKPIASPSEAT
Molecule	lacZ reporter activity
B1 (MYCBP2 RING domain)	0
YCEMGSTFQLCKICAENDKDVKIEPCGHLMCTSCLTAWQESDGQGCPFCRCEIKGTEPII (CBLB RING domain (UniProt Q13191))	0
B2 (DEF8 RING domain)	0
B3 (RNF187 RING domain)	0
LDAASGHPLVCPLCHGQYERPCLLDCFHDFCTGCLRGRATDGRLSCPLCQHQTLVKGPSG (Rnf207 RING domain (UniProt Q3V3A7))	0
B4 (TRIM37 RING domain)	0
MNDVLENELQCIICSEYFIEAVTLNCAHSFCSYCINEWMKRKIECPICRKDIKSKTYSL (RNF8 RING domain (UniProt O76064))	0
B5 (RNF166 RING domain)	0
RYRQMEERITCPICIDSHIRLVFQCGHGACAPCGSALSACPICRQPIRDRIQIF (MIB2 RING domain (UniProt Q96AX9))	0
B6 (RNF152 RING domain)	0
AEADPLGRFTCPVCLEVYEKPVQVPCGHVFCSACLQECLKPKKPVCGVCRSALAPGVRAV (RNF114 RING domain (UniProt Q9Y508))	0
B7 (MEX3B RING domain)	0
QVQSRTKIEECVVCSDKKAAVLFQPCGHMCACENCANLMKKCVQCRAVVERRVPFI (MIB1 RING domain (UniProt Q86YT6))	0
B8 (TRIM22 RING domain)	0
B9 (TRIM54 RING domain)	0
B10 (RNF122 RING domain)	0

Study 4
Target: ABI1, truncated, D143A, DHFR fusion (Arabidopsis thaliana)
Technique: DHFR PCA, deep sequencing
Matrix: yeast
Setting: methotrexate growth selection, single substitutions
Added: (+)-ABA 0.11 µM
Baseline: wild-type fitted maximum
Direction: higher = stronger binding
Starting sequence: PYL1, truncated, DHFR fusion (Arabidopsis thaliana); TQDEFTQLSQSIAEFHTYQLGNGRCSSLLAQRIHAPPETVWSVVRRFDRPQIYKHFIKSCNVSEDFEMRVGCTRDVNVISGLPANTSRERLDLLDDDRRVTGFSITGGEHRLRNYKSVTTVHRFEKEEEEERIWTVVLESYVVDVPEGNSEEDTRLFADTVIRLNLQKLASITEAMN; partner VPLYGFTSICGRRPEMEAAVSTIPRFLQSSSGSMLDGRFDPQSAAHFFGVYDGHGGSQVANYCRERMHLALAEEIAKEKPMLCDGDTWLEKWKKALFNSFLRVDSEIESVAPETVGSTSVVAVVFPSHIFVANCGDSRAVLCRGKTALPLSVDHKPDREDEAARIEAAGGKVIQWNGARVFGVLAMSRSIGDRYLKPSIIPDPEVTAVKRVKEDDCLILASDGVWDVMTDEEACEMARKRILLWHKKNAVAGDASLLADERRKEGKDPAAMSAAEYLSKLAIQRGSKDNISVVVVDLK
Variant	relative binding score
K126W	7.68%
L94A	-13.1%
V142Y	-2.01%
E128N	45.1%
E109P	-4.61%
N77F	23.4%
E139V	17.6%
L166A	10.1%
R123N	13.1%
S104G	-0.0375%
H34I	5.32%
T39W	-3.59%
H16P	1.64%
E64M	10.4%
V121E	-8.55%
L94K	-8.21%
I162A	3.84%
T6A	52.3%
W41Q	-2.26%

Study 5
Target: FOSL2, bZIP domain (human)
Technique: DHFR protein complementation
Matrix: yeast
Setting: single substitutions, most at no-binding floor
Baseline: wild-type JUN-FOS pair
Direction: higher = stronger binding
Starting sequence: JUN, bZIP domain (human); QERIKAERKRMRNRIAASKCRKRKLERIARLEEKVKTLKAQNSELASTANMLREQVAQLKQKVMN; partner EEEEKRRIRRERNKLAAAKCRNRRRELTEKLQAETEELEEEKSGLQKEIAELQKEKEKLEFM
Variant	binding fitness [natural log]
L38A	-0.394
N42M	-0.154
E44H	0.02
K39I	-0.333
V56R	-1.29
E32H	-0.105
E32S	0.0116
I28T	-0.0615
R30V	0.249
Q41H	-0.0833
T37K	0.0563
L45E	-1.29
T37A	0.124
A46K	0.181

Study 6
Target: CCND1, cyclin fold, Cln2 fusion (human)
Technique: yeast growth competition, sequencing
Matrix: yeast
Setting: weak parent motif
Baseline: not given
Direction: higher = stronger binding
Starting sequence: PKMYT1 docking peptide (human); SFEPRNLLSLFED
Variant	normalised enrichment score
SCEPRNLLSLFED [F2C]	0.629
SFEPRNLPSLFED [L8P]	0.304
SFCPRNLLSLFED [E3C]	1.08
SFEPRNLLSLWED [F11W]	1.75
SFEPRNLLSAFED [L10A]	1.44
SFEPRNLSSLFED [L8S]	0.3
SFEPRNLLSNFED [L10N]	1.17
SFEPRNLVSLFED [L8V]	-0.117
SFEPRNLLSTFED [L10T]	0.662
SFEPGNLLSLFED [R5G]	1.69
SFEPRNLLSLFEN [D13N]	1.4
SGEPRNLLSLFED [F2G]	1.01
SFEFRNLLSLFED [P4F]	1.05
SFEPRNLLSFFED [L10F]	0.866
FFEPRNLLSLFED [S1F]	0.854
SVEPRNLLSLFED [F2V]	0.341
